Experimental data collected from several papers.
Protocols differ between the studies behind these lines. Several values in a cell are separate wells, animals, samples, runs or records. pEC50, pIC50, pKd, pKi: −log10 of the molar value.
TEAD4: Transcriptional enhancer factor TEF-3 (TEAD4, Homo sapiens, UniProt Q15561)
UniProt Q15561, sequence (whole entry, looked up): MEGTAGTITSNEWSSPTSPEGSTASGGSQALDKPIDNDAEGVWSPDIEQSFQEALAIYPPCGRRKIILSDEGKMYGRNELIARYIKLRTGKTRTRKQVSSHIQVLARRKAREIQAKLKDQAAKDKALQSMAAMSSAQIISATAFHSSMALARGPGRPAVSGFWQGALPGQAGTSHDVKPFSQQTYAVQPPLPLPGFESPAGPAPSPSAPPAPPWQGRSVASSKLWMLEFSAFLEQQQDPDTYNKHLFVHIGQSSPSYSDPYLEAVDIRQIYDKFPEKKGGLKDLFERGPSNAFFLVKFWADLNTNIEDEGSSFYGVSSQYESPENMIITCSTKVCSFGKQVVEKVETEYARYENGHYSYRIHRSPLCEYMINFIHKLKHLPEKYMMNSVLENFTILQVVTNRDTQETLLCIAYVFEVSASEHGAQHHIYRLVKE
HLA class I histocompatibility antigen, A alpha chain: HLA class I histocompatibility antigen, A alpha chain (Homo sapiens, UniProt P04439)
UniProt P33535, sequence (whole entry, looked up): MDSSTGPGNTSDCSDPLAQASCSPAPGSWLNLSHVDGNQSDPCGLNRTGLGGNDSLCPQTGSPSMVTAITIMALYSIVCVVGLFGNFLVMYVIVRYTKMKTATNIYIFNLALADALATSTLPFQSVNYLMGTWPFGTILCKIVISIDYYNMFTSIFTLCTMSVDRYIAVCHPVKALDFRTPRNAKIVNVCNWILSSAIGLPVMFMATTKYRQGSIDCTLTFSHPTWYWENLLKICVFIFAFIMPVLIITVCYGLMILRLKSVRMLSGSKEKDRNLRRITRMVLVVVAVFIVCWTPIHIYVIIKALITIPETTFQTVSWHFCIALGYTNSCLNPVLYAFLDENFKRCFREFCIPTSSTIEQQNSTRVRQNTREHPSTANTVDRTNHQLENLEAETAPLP
UniProt Q96LB1, sequence (whole entry, looked up): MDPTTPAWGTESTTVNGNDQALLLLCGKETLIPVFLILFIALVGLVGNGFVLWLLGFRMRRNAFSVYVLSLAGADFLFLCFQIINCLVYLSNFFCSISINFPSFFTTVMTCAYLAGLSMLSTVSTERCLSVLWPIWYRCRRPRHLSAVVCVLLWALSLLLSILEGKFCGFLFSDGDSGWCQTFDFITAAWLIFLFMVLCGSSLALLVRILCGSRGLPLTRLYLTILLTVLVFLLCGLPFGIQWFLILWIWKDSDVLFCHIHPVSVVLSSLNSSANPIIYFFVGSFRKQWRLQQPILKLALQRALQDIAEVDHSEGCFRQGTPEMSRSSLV
UniProt P48039, sequence (whole entry, looked up): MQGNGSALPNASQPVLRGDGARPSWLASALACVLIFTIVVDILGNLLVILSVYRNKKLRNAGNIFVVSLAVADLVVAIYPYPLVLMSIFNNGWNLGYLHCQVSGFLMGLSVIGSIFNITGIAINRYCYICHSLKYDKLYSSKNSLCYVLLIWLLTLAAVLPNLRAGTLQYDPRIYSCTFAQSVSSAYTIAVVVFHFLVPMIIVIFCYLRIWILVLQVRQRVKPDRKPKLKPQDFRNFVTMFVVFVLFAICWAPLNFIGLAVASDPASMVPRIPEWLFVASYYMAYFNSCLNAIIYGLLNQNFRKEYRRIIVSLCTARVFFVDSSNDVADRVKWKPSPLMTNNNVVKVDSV
UniProt P35368, sequence (whole entry, looked up): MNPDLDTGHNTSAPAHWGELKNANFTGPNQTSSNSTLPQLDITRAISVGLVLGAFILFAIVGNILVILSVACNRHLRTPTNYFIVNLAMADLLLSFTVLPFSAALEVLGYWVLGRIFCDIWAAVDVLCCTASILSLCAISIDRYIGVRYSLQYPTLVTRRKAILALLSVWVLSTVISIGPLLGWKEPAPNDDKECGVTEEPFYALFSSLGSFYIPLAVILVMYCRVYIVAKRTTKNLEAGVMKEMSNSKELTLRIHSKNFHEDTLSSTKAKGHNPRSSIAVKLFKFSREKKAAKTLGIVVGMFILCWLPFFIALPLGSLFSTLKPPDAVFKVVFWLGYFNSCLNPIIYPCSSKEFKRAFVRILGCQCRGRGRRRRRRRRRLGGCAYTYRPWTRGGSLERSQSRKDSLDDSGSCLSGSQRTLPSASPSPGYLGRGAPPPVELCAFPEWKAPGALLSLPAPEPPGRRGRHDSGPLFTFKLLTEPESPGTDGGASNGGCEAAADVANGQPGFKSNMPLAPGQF
UniProt Q16581, sequence (whole entry, looked up): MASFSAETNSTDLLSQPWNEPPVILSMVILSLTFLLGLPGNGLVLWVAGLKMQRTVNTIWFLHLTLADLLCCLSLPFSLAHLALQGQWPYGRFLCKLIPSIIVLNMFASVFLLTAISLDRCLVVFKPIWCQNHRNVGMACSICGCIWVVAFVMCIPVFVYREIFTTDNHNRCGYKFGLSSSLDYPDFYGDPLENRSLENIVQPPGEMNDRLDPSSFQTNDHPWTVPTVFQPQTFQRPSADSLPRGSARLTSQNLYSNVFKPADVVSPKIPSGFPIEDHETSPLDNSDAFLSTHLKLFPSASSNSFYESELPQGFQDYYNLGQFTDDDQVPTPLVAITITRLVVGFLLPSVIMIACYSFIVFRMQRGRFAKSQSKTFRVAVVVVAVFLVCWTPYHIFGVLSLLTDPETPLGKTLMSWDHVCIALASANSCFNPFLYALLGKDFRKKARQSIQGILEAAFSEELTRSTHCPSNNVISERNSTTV
UniProt O95382, sequence (whole entry, looked up): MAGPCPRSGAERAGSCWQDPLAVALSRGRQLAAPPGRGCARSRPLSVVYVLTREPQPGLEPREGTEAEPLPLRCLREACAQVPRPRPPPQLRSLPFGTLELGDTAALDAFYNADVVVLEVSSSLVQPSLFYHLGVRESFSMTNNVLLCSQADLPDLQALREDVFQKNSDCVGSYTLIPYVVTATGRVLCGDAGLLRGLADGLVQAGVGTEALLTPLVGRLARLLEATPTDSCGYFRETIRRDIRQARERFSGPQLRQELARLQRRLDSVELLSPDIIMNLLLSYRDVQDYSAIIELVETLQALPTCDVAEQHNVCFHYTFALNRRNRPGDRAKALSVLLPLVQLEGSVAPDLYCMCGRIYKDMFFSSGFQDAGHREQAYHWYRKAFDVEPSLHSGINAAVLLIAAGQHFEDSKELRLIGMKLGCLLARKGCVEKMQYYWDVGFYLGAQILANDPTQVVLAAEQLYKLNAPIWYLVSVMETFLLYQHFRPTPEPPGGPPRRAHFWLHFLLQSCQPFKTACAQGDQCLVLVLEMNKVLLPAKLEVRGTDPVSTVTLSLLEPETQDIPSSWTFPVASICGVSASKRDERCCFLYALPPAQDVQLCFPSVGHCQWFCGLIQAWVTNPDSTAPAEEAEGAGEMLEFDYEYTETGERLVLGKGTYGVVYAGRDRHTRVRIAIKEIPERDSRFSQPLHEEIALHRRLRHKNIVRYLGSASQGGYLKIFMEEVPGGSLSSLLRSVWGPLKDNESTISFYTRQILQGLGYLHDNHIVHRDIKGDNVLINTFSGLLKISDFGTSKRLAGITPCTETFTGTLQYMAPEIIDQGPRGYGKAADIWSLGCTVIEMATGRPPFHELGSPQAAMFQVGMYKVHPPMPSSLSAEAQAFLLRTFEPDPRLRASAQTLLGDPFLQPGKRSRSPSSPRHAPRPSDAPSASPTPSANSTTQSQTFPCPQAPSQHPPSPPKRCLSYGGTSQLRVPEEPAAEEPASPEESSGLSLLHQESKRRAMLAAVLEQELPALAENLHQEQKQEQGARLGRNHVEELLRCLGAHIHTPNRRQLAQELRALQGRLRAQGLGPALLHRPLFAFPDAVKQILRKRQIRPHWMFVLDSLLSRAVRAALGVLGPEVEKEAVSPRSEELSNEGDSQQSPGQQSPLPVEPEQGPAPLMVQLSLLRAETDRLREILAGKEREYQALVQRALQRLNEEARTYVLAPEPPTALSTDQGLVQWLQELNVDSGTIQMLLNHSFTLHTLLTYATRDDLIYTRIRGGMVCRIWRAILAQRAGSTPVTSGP
UniProt P15090, sequence (whole entry, looked up): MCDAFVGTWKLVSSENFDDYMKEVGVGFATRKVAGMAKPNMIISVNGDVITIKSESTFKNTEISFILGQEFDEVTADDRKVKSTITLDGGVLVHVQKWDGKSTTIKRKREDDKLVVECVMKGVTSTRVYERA
UniProt P30048, sequence (whole entry, looked up): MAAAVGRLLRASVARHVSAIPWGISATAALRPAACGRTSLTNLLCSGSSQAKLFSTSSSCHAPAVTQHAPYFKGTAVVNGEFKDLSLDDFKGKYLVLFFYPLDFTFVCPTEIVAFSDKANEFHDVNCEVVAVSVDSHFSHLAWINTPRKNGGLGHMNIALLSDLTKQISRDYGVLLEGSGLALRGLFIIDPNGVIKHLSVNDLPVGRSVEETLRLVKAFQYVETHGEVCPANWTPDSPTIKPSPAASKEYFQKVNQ
UniProt P30939, sequence (whole entry, looked up): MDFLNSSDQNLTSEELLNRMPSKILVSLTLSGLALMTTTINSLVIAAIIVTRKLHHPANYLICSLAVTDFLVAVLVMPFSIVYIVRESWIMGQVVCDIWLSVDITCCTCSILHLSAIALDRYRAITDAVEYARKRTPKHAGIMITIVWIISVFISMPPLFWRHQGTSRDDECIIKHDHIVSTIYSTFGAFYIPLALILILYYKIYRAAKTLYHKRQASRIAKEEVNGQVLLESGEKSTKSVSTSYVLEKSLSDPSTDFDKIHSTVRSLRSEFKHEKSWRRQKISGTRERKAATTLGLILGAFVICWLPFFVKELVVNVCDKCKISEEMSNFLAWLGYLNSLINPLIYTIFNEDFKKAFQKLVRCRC

CC(C)C[C@H](NC(=O)[C@H](CCCCN)NC(=O)[C@H](CCCNC(=N)N)NC(=O)[C@H](CC(C)C)NC(=O)[C@H](CCCNC(=N)N)NC(=O)[C@H](CCCNC(=N)N)NC(=O)[C@@H]1CCCN1C(=O)[C@@H](N)C(C)C)C(=O)N[C@@H](CCCNC(=N)N)C(=O)N[C@@H](C)C(=O)N[C@@H](CO)C(=O)N[C@@H](Cc1ccccc1)C(=O)N[C@@H](Cc1ccccc1)C(=O)N[C@@H](CCCCN)C(=O)N1CCC[C@H]1C(=O)N1CCC[C@H]1C(=O)N[C@@H](CCC(=O)O)C(=O)O — pKd (TEAD4; binding, SPR; pH 7.4): 4.94
CCN(CC)C(=O)N[C@H]1C[C@@H]2c3cccc4[nH]cc(c34)C[C@H]2N(C)C1 — pEC50 (HTR1F (Homo sapiens, UniProt P30939); G protein activation, agonist, BRET): 6.35
Cc1nn(C)cc1-c1nc2c(N3CCN(Cc4ccc(Cl)cc4)CC3)c(Cl)cnc2[nH]1 — remaining binding (PIK3C2G (Homo sapiens, UniProt O75747); binding, competition with immobilised ligand; 1 µM): 100%
[2H]c1c([2H])c([C@]2([2H])CCCN2C(=O)C(C)(C)Oc2ccc3cn[nH]c3c2)c([2H])c([2H])c1C([2H])([2H])[2H] — remaining binding (SBK1 (Homo sapiens, UniProt Q52WX2); binding, competition with immobilised ligand; 1 µM): 95%
CC(C)C[C@H](NC(=O)[C@@H](N)[C@@H](C)O)C(=O)N[C@@H](CCC(N)=O)C(=O)N1CCC[C@H]1C(=O)N1CCC[C@H]1C(=O)N[C@@H](C)C(=O)N[C@@H](CO)C(=O)N[C@@H](CO)C(=O)N[C@@H](CCCNC(=N)N)C(=O)N[C@H](CCCNC(=N)N)C(=O)N[C@@H](CCCNC(=N)N)C(=O)N[C@@H](Cc1c[nH]cn1)C(=O)N[C@@H](Cc1ccccc1)C(=O)N[C@@H](Cc1c[nH]cn1)C(=O)N[C@@H](Cc1c[nH]cn1)C(=O)N[C@@H](C)C(=O)N[C@@H](CC(C)C)C(=O)N1CCC[C@H]1C(=O)N1CCC[C@H]1C(=O)N[C@@H](C)C(=O)N[C@@H](CCCCNC(=N)N)C(=O)O — pEC50 (C3AR1 (Homo sapiens, UniProt Q16581); β-arrestin recruitment, agonist): 6.67
O=C(O)C(F)(F)C(F)(F)C(F)(F)C(F)(F)C(F)(F)F — pKi (FABP4 (Homo sapiens, UniProt P15090); ligand displacement, fluorescence): 4.06
CC[C@H]1CN2CCc3c([nH]c4ccccc34)[C@H]2C[C@@H]1/C(=C\OC)C(=O)OC — pKd (PRDX3 (Homo sapiens, UniProt P30048); binding, SPR): 5.72
CC(C)[C@@H](Nc1nc(Cl)nc2c1ncn2[C@H]1[C@H](O)[C@H](O)[C@]2(CN)C[C@H]12)C1CC1 — pKi (HTR2B (Homo sapiens, UniProt P41595); ligand displacement, radioligand): 6.33
CSCC[C@H](NC(=O)[C@@H]1CCCN1C(=O)[C@@H](N)Cc1ccc(O)cc1)C(=O)N[C@@H](CCCNC(=N)N)C(=O)N[C@@H](CC(C)C)C(=O)N[C@@H](CCCNC(=N)N)C(=O)N[C@@H](CCCCN)C(=O)N[C@@H](CC(C)C)C(=O)N1CCC[C@H]1C(=O)N[C@@H](C)C(=O)N[C@@H](CO)C(=O)N[C@@H](Cc1ccccc1)C(=O)N[C@@H](Cc1ccccc1)C(=O)N[C@@H](CCCCN)C(=O)N1CCC[C@H]1C(=O)N1CCC[C@H]1C(=O)N[C@@H](CCC(=O)O)C(=O)O — pKd (TEAD4; binding, SPR; pH 7.4): 4.32
N=C(N)NCCC[C@H]1NC(=O)[C@H](Cc2ccc(O)cc2)NC(=O)[C@H](CCCCN)NC(=O)[C@H](Cc2ccccc2)NC1=O — pKi (Oprm1 (Rattus norvegicus, UniProt P33535); ligand displacement, radioligand; cell membranes): 8.98 and 8.70 to 9.00
Nc1ncc(-c2nc(N3CCOCC3)nc(N3CCOCC3)n2)c(C(F)F)n1 — remaining binding (EIF2AK2 (Homo sapiens, UniProt P19525); binding, competition with immobilised ligand; 10 µM): 91%
CC[C@H](C)[C@H](NC(=O)[C@H](CCCCN)NC(=O)[C@H](CCC(N)=O)NC(=O)[C@H](CCCNC(=N)N)NC(=O)[C@H](CC(N)=O)NC(=O)[C@H](CO)NC(=O)[C@H](CO)NC(=O)[C@H](Cc1ccccc1)NC(C)=O)C(=O)N[C@@H](CC(C)C)C(=O)N[C@@H](CCC(=O)O)C(=O)N[C@@H](CCCNC(=N)N)C(=O)N[C@H](C(=O)N[C@@H](CCC(=O)O)C(=O)N[C@H](C(=O)N[C@@H](CC(C)C)C(=O)N[C@@H](CC(N)=O)C(=O)N[C@@H](CCC(N)=O)C(=O)N[C@@H](CCC(=O)O)C(=O)N[C@@H](Cc1c[nH]c2ccccc12)C(N)=O)[C@@H](C)CC)[C@@H](C)O — pEC50 (MRGPRX2 (Homo sapiens, UniProt Q96LB1); calcium signal, agonist): < 4.70
CC[C@H](C)[C@H](NC(=O)[C@H](Cc1c[nH]cn1)NC(=O)[C@H](CCCCN)NC(=O)[C@H](Cc1ccc(O)cc1)NC(=O)[C@H](CCC(N)=O)NC(=O)[C@H](C)N)C(=O)N[C@@H](Cc1c[nH]cn1)C(=O)N[C@H](C(=O)N[C@@H](Cc1ccc(O)cc1)C(=O)O)[C@@H](C)O — pIC50 (HLA class I histocompatibility antigen, A alpha chain; cell-free assay): 6.17
COc1ccc2cccc(C(CO)CNC(=O)CF)c2c1 (stereo not drawn) — pEC50 (MTNR1A (Homo sapiens, UniProt P48039); β-arrestin recruitment, agonist): 8.57
CC(C)C[C@H](NC(=O)[C@H](CCC(N)=O)NC(=O)[C@H](CCCNC(=N)N)NC(=O)[C@H](CO)NC(=O)[C@H](Cc1ccc(O)cc1)NC(=O)[C@H](CC(C)C)NC(=O)[C@@H](N)CCCNC(=N)N)C(=O)N[C@@H](Cc1c[nH]cn1)C(=O)N[C@@H](Cc1ccccc1)C(=O)O — pIC50 (HLA class I histocompatibility antigen, A alpha chain; cell-free assay): 8.21
Cc1ccc2c(c1)C(=O)C1(O)CCN(c3ccccc3)C1=N2 (stereo not drawn) — pKi (Myosin-7 (MYH7, Bos taurus, UniProt Q9BE39); ATPase activity, inhibitor): 5.72
CC[C@H](C)[C@H](NC(=O)[C@@H]1CCCN1C(=O)[C@H](CC(N)=O)NC(=O)[C@H](CC(C)C)NC(=O)[C@@H](N)CCCNC(=N)N)C(=O)NCC(=O)N[C@@H](Cc1ccc(O)cc1)C(=O)N[C@@H](CO)C(=O)N[C@@H](Cc1ccc(O)cc1)C(=O)O — pIC50 (HLA class I histocompatibility antigen, A alpha chain; cell-free assay): 7.82
Cc1cc(=O)oc2cc(OCCCC[Se]C#N)ccc12 — pKi (CA9 (Homo sapiens, UniProt Q16790); enzyme activity, inhibitor, stopped-flow): 7.46
CC[C@H](C)[C@H](NC(=O)[C@H](CCCNC(=N)N)NC(=O)[C@H](CC(=O)O)NC(=O)[C@H](Cc1ccccc1)NC(=O)[C@@H](NC(=O)[C@H](C)N)[C@@H](C)O)C(=O)N[C@@H](Cc1c[nH]cn1)C(=O)N[C@@H](CCC(N)=O)C(=O)N[C@@H](Cc1ccccc1)C(=O)O — pIC50 (HLA class I histocompatibility antigen, A alpha chain; cell-free assay): 4.98
CCC(C(=O)Nc1cc(NC2CCOCC2)ccc1C)n1cc(Br)cc2nc(SCc3ccc(F)cc3)nc1-2 (stereo not drawn) — pIC50 (USP28 (Homo sapiens, UniProt Q96RU2); enzyme activity, inhibitor): < 4.00
CC[C@H](C)[C@H](NC(=O)[C@@H](N)CCCCN)C(=O)N[C@@H](Cc1ccccc1)C(=O)N1CCC[C@H]1C(=O)N[C@@H](CCCCN)C(=O)N1CCC[C@H]1C(=O)N[C@@H](CC(C)C)C(=O)N[C@@H](Cc1ccc(O)cc1)C(=O)N[C@@H](CCSC)C(=O)O — pIC50 (HLA class I histocompatibility antigen, A alpha chain; cell-free assay): 6.82
COc1ncccc1-c1cnn2ccc(N3CCN(C(=O)OC(C)C)CC3)nc12 — remaining binding (MAP3K6 (Homo sapiens, UniProt O95382); binding, competition with immobilised ligand; 1 µM): 100%
CSCC[C@H](NC(=O)[C@@H]1CCCN1C(=O)[C@H](CCCCN)NC(=O)[C@H](CC(=O)O)NC(=O)[C@H](Cc1c[nH]c2ccccc12)NC(=O)[C@H](CCC(N)=O)NC(=O)[C@@H](N)CCCCN)C(=O)N[C@@H](Cc1ccc(O)cc1)C(=O)N[C@@H](Cc1ccc(O)cc1)C(=O)O — pIC50 (HLA class I histocompatibility antigen, A alpha chain; cell-free assay): 7.59
COc1cc2c(cc1OC)CN(CCc1ccc(NC(=O)c3cccc4c(=O)c5cccc(OC)c5[nH]c34)cc1)CC2 — pKi (ADRA1B (Homo sapiens, UniProt P35368); cell-free assay): 6.71
